{"data": "Measured values collected from several papers", "cell line": "HeLa", "note": "Compare with care: the assays were run in different laboratories."}
{"Compound": "C=C1C(=O)O[C@H]2[C@H]1CC/C(C)=C/CC[C@@]1(C)O[C@@H]21", "observed": "cell growth or viability", "time": "24 h", "IC50 [µM]": 24.3}
{"Compound": "Cc1cncc(NC(=O)Cn2cc(COc3ncnc4[nH]cnc34)nn2)c1", "observed": "cell growth or viability", "technique": "MTT", "IC50 [µM]": 7.1}
{"Compound": "CC(=O)O[C@H]1C(=O)[C@@]2(C)[C@H]([C@H](OC(=O)c3ccccc3)[C@]3(O)C[C@H](OC(=O)[C@H](O)[C@@H](NC(=O)c4ccccc4)c4ccccc4)C(C)=C1C3(C)C)[C@]1(OC(C)=O)CO[C@@H]1C[C@@H]2O", "observed": "cell growth or viability", "time": "48 h", "IC50 [µM]": 0.0067}
{"Compound": "CCC(O)CC(=O)O[C@@H]1C[C@@H]2[C@@]3(C)CCC[C@](C)(CC)[C@@H]3CC[C@@]2(C)[C@@H]2C[C@@H](O)C3=C(C(=O)O[C@H]3C)[C@@]12C (stereo partly shown)", "observed": "cell growth or viability", "technique": "CCK-8", "time": "24 h", "IC50 [µM]": "≤ 25"}
{"Compound": "CO[C@@]12[C@H](COC(N)=O)C3=C(C(=O)C(C)=C(N)C3=O)N1C[C@@H]1N[C@@H]12", "observed": "cell growth or viability", "time": "48 h", "IC50 [µM]": 1.44}
{"Compound": "CC(C=NNC(N)=S)=NNC(N)=S", "observed": "cell growth or viability", "technique": "MTT", "IC50 [µM]": 0.027}
{"Compound": "CCOP(=O)(OCC)[C@@H]1C[C@@H](Cn2c(=O)n(C(=O)c3ccc(F)cc3)c(=O)c3ccccc32)ON1C (relative stereo)", "observed": "cell growth or viability", "time": "96 h", "IC50 [µM]": "> 250"}
{"Compound": "O=C1/C(=C/c2ccc(O)c(O)c2)Oc2cc(O)ccc21", "observed": "cell growth or viability", "technique": "MTT", "time": "72 h", "IC50 [µM]": 78.8}
{"Compound": "CC(C=NN=C(N)[S-])=NN=C(N)[S-].O=[N+]([O-])[O-].[Co+3].c1c[nH]cn1.c1c[nH]cn1", "observed": "cell growth or viability", "technique": "MTT", "IC50 [µM]": "~28"}
{"Compound": "COc1cc2c(cc1O)CC[C@@H]1[C@@H]2CC[C@]2(C)[C@@H](O)CC[C@@H]12", "observed": "cell growth or viability", "technique": "MTT", "time": "48 h", "IC50 [µM]": 0.993}
{"Compound": "O=C(/C=C/c1ccc(O)c(O)c1)c1ccc(O)cc1O", "observed": "cell growth or viability", "technique": "MTT", "time": "72 h", "IC50 [µM]": 8.66}
{"Compound": "CCOC(=O)c1[nH]cc2c1NC1=C(C(=O)CCC1)[C@H]2c1cccc(Oc2nc3ccccc3[nH]2)c1", "observed": "cell growth or viability", "technique": "ATP luminescence", "time": "72 h", "IC50 [µM]": "< 0.01"}
{"Compound": "C=CC(=O)Nc1cccc(C(=O)Nc2ccc(Nc3nccc(-c4cccnc4)n3)cc2)c1", "observed": "c-Jun phosphorylation", "technique": "TR-FRET", "measured": "phospho-c-Jun Ser73", "IC50 [µM]": "~0.1"}
{"Compound": "C=C1C(=O)O[C@H]2[C@H]1[C@H](OC(=O)[C@@]1(C)O[C@H]1C)[C@@H](OC(C)=O)/C(C(=O)OC)=C\\CC[C@@]1(C)O[C@H]21", "observed": "cell growth or viability", "time": "48 h", "IC50 [µM]": 6.55}
{"Compound": "CC(=NN=C(N)[S-])C(C)=NN=C(N)[S-].N.N.O=[N+]([O-])[O-].[Co+3]", "observed": "cell growth or viability", "technique": "MTT", "IC50 [µM]": "> 500"}
{"Compound": "C=C1C(=O)O[C@@H]2/C=C(\\C)CC/C=C(/C(=O)OC)[C@H](OC(C)=O)[C@@H](OC(=O)[C@]3(C)O[C@@H]3C)[C@@H]12", "observed": "cell growth or viability", "time": "48 h", "IC50 [µM]": 5.99}
{"Compound": "O=C1NCCc2c(OCCCCN3CCCCC3)cccc21", "observed": "H1R promoter reporter gene", "setting": "p65 construct, region B1 only, pretreatment 1 h", "added": "PMA 100 nM for 10 h", "IC50 [µM]": 64}
{"Compound": "COc1cc([C@@H]2c3cc4c(cc3[C@@H](O[C@@H]3O[C@@H]5CO[C@@H](C)O[C@H]5[C@H](O)[C@H]3O)[C@H]3COC(=O)[C@H]23)OCO4)cc(OC)c1O", "observed": "cell growth or viability", "time": "48 h", "IC50 [µM]": 3.2}
{"Compound": "O=C(Cn1cc(COc2ncnc3[nH]cnc23)nn1)NCc1ccc(O)cc1", "observed": "cell growth or viability", "technique": "MTT", "IC50 [µM]": 6.02}
{"note": "For quick reference, copied from above:"}
{"Compound": "CC(C=NN=C(N)[S-])=NN=C(N)[S-].O=[N+]([O-])[O-].[Co+3].c1c[nH]cn1.c1c[nH]cn1", "observed": "cell growth or viability", "technique": "MTT", "IC50 [µM]": "~28"}
{"Compound": "C=C1C(=O)O[C@H]2[C@H]1CC/C(C)=C/CC[C@@]1(C)O[C@@H]21", "observed": "cell growth or viability", "time": "24 h", "IC50 [µM]": 24.3}
{"Compound": "C=CC(=O)Nc1cccc(C(=O)Nc2ccc(Nc3nccc(-c4cccnc4)n3)cc2)c1", "observed": "c-Jun phosphorylation", "technique": "TR-FRET", "measured": "phospho-c-Jun Ser73", "IC50 [µM]": "~0.1"}
